Measured values from different studies.
Compare with care: the assays were run in different laboratories. “And” joins repeats or separate records; there may be more than shown. ± gives the spread as reported.

| SMILES | target | assay | system | setting | how to read | quantity | value |
| --- | --- | --- | --- | --- | --- | --- | --- |
| Nc1ccc(C(=O)O)cc1 | BEST1, with wild-type BEST1 (Homo sapiens, UniProt O76090, A243T) | whole-cell patch clamp | HEK293 co-expressing WT and A243T mutant | concentration not given, membrane potential 60 mV | – | current density | 23.3 pA/pF and 18.4 pA/pF and 18.7 pA/pF and 15.5 pA/pF and 4.87 pA/pF and 5.81 pA/pF and 19.1 pA/pF |
| Cc1nc(NC(=O)N2CCC[C@H]2C(N)=O)sc1-c1ccnc(C(C)(C)C(F)(F)F)c1 | Tyrosine-protein kinase JAK1, JH1 kinase domain (JAK1, Homo sapiens, UniProt P23458) | KINOMEscan | – | 10 µM | – | remaining binding | 100% |
| COc1cc(Nc2ncc3c(n2)-c2ccc(Cl)cc2C(c2c(F)cccc2OC)=NC3)ccc1C(=O)O | CAMK2B | kinase activity | – | 1 µM | – | remaining activity | 96% |
| Nc1ncnc2c1ncn2[C@@H]1O[C@H](COP(=O)(O)OP(=O)(O)OP(=O)(O)O)[C@@H](O)[C@H]1O | P2X purinoceptor 7 (P2rx7, Rattus norvegicus, UniProt Q64663) | ion current, agonist, two-electrode voltage clamp | Xenopus laevis oocytes | 111 µM | baseline: highest concentration response | normalized current | 0.93 and 0.8 and 0.82 |
| Cc1cc(O)c(C(C)C)cc1N=C1CSC(=O)N1 | ADORA2A (Homo sapiens, UniProt P29274) | radioligand displacement | – | together with: [3H]ZM241385 | – | ligand efficiency | 0.44 |
| C=CC(=O)N1CCC(COCC(=O)N2CCN(c3nc(-c4cnc(N)nc4C(F)F)nc(N4CCOC[C@@H]4C)n3)CC2)CC1 | BMPR1A (Homo sapiens, UniProt P36894) | KINOMEscan | – | 1 µM | – | remaining binding | 100% |
| COc1cc(O)c2c(c1)oc(=O)c1c3cc(O)c(O)cc3oc21 | MAL12 (Saccharomyces cerevisiae S288c, UniProt P53341) | ANS fluorescence | – | 0.5 µM, hydrophobic exposure | – | fluorescence increase | 26.8% |
| COc1cc(NC(=O)c2cnn(-c3ccc([N+](=O)[O-])cc3)c2C(F)(F)F)cc(OC)c1 | PTGS2 (Homo sapiens, UniProt P35354) | enzyme activity, inhibitor | – | – | baseline: COX-1 IC50 over COX-2 IC50 | selectivity ratio | 0.3 |
| CC(C)c1cccc(C(C)C)c1O | Voltage-gated sodium channel NavMs (Magnetococcus marinus, UniProt A0L5S6) | allosteric modulator, whole-cell patch clamp | HEK293 | 1 µM, pH 7.3, 22–25 °C | – | ΔV1/2 of activation | -3.14 ± 1.47 mV |
| COc1cccc(CNC(=O)C#Cc2cn(Cc3ccc(C(=O)O)cc3)c(=O)[nH]c2=O)c1 | Collagenase 3 (MMP13, Homo sapiens, UniProt P45452) | protease activity, FRET | – | – | – | log IC50 | -7.963 ± 0.0471 |
| O=c1nc(SCc2cc(F)cc(C(F)(F)F)c2)nc(SCc2csc3ccc(Cl)cc23)[nH]1 | TOP2A (Homo sapiens, UniProt P11388) | DNA cleavage | – | 1.95 µM, replicate 2 | – | linear DNA | 0% |
| NCCCC(=O)O | SLC6A6 (Homo sapiens, UniProt P31641, G62A) | binding, microscale thermophoresis | – | 500 µM, room temperature, together with: 50 nM labelled protein | higher = more binding | normalised MST signal | 0.0814 |
| COC(=O)C(Cc1cccc(OC)c1I)NC(=O)CN(Cc1ccccc1)C(C)=O (stereo not shown) | OPRK1 (Homo sapiens, UniProt P41145) | binding | – | concentration not given | – | activity | inactive |
| CC/C=C\CC=O | uncharacterized protein (Spodoptera exigua, UniProt F1CEY0) | binding, 1-NPN competitive displacement | – | protein 2.0 µM, together with: 1-NPN 20 µM | baseline: 1-NPN without compound, lower = stronger binding | relative fluorescence | 66.9% |
| Cc1cn([C@H]2C[C@H](N=[N+]=[N-])[C@@H](CO)O2)c(=O)[nH]c1=O | UGT2B7 (Homo sapiens, UniProt P16662) | glucuronidation, substrate | washed microsomes | together with: additional fatty acids | – | Vmax | 17 ± 10 pmol/min/mg protein |
| CC1(C)CC2(C)OC(=O)NC2(C)c2ccccc21 (stereo not shown) | DNA mismatch repair protein Msh6 (Homo sapiens, UniProt P52701) | binding, affinity selection mass spectrometry | – | – | baseline: other proteins in batch | fold enrichment | 1.14 |

Excerpt of the above:
| SMILES | target | assay | system | setting | how to read | quantity | value |
| --- | --- | --- | --- | --- | --- | --- | --- |
| COc1cccc(CNC(=O)C#Cc2cn(Cc3ccc(C(=O)O)cc3)c(=O)[nH]c2=O)c1 | Collagenase 3 (MMP13, Homo sapiens, UniProt P45452) | protease activity, FRET | – | – | – | log IC50 | -7.963 ± 0.0471 |
| COc1cc(NC(=O)c2cnn(-c3ccc([N+](=O)[O-])cc3)c2C(F)(F)F)cc(OC)c1 | PTGS2 (Homo sapiens, UniProt P35354) | enzyme activity, inhibitor | – | – | baseline: COX-1 IC50 over COX-2 IC50 | selectivity ratio | 0.3 |
| NCCCC(=O)O | SLC6A6 (Homo sapiens, UniProt P31641, G62A) | binding, microscale thermophoresis | – | 500 µM, room temperature, together with: 50 nM labelled protein | higher = more binding | normalised MST signal | 0.0814 |
